{"data": "Assay results from different studies", "rep papain-like protease": "Replicase polyprotein 1ab, papain-like protease (rep, Severe acute respiratory syndrome coronavirus 2, UniProt P0DTD1)", "rep nsp13 helicase": "Replicase polyprotein 1ab, nsp13 helicase (rep, Severe acute respiratory syndrome coronavirus 2, UniProt P0DTD1)", "rep main protease": "Replicase polyprotein 1ab, main protease (rep, Severe acute respiratory syndrome coronavirus 2, UniProt P0DTD1)", "rep nsp12 with nsp14/nsp10": "Replicase polyprotein 1ab, nsp12 with nsp14/nsp10 (rep, Severe acute respiratory syndrome coronavirus 2, UniProt P0DTD1)", "note": "Several values in a cell are separate wells, animals, samples, runs or records. ± marks the error that the study gave."}
{"SMILES": "CCC(C(=O)Nc1cc(NC2CCNC2)ccc1C)n1cccc2nc(SCc3ccc(F)cc3)nc1-2 (centres unmarked)", "target": "rep papain-like protease", "test": "binding", "endpoint": "Kd", "value": "253 ± 20 nM"}
{"SMILES": "Cc1ccccc1NC(=O)CSc1nnc(-c2ccco2)c(-c2ccco2)n1", "target": "rep nsp13 helicase", "test": "helicase ATPase activity, inhibitor, Kinase-Glo luminescence", "setting": "60 min, added: 2.5 µM ATP", "endpoint": "IC50", "value": "26 µM"}
{"SMILES": "Cc1nn(-c2ccc(Cl)cc2)c2c1C(c1ccc(Cl)cc1Cl)C(C#N)=C(N)O2 (centres unmarked)", "target": "rep main protease", "test": "3CL protease activity", "setting": "120 min", "endpoint": "IC50", "value": "437 µM"}
{"SMILES": "O=C(O)c1cc(O)c(O)c(O)c1", "target": "rep main protease", "test": "inactivator", "setting": "37 °C", "endpoint": "Ki", "value": "3.85 µM"}
{"SMILES": "O=C(N/N=C/c1cc(Cl)c(O)c(Cl)c1)c1cc2c(ccc3ccccc32)o1", "target": "rep nsp13 helicase", "test": "helicase ATPase activity, inhibitor, Kinase-Glo luminescence", "setting": "60 min, added: 2.5 µM ATP", "endpoint": "IC50", "value": "22 µM"}
{"SMILES": "CCC(C(=O)Nc1cc(NC2CNC2)ccc1C)n1cc(Br)cc2nc(SCc3ccc(F)cc3)nc1-2 (centres unmarked)", "target": "rep papain-like protease", "test": "binding", "endpoint": "Kd", "value": "141 ± 29 nM"}
{"SMILES": "CC(=O)NC1=NC(=O)/C(=C/c2cc(C)n(-c3cccc(C(=O)O)c3)c2C)S1", "target": "rep nsp13 helicase", "test": "helicase ATPase activity, inhibitor, Kinase-Glo luminescence", "endpoint": "IC50", "value": "> 150 µM"}
{"SMILES": "Nc1nc2c(ncn2[C@H]2C[C@H](O)[C@@H](CO)O2)c(=S)[nH]1", "target": "rep nsp12 with nsp14/nsp10", "test": "RdRp activity, inhibitor, CoV-RdRp-Gluc reporter", "test system": "HEK293T, SARS-CoV-2", "setting": "with proofreading, added: nsp7, nsp8, nsp10 and nsp14", "endpoint": "EC50", "value": "8.68 µM"}
{"SMILES": "CCOc1ccc(/C=C/C(=O)c2cc(Br)ccc(=O)c2O)cc1", "target": "rep nsp13 helicase", "test": "helicase ATPase activity, inhibitor, Kinase-Glo luminescence", "setting": "60 min, added: 2.5 µM ATP", "endpoint": "IC50", "value": "6 µM"}
{"SMILES": "O=c1c(O)c(-c2ccc(O)cc2)oc2c(O)c(O)cc(O)c12", "target": "rep main protease", "test": "inactivator", "setting": "37 °C", "endpoint": "Ki", "value": "7.46 µM"}
{"SMILES": "CC(C)(C)c1ccc(N(C(=O)CCl)C(C(=O)NC2CCCCC2)c2cccnc2)cc1 (centres unmarked)", "target": "rep main protease", "test": "inhibitor, ITC, two-step reversible model", "endpoint": "Ki", "value": "16 ± 2 µM"}
{"SMILES": "CC(C)C[C@H](NC(=O)OCc1ccccc1)C(=O)N[C@@H](CC(C)C)C(=O)N[C@@H](CC1CCNC1=O)C(=O)C(=O)NC1CC1 (some centres unmarked)", "target": "rep main protease", "test": "enzyme activity, inhibitor, FRET", "endpoint": "Ki", "value": "0.0132 µM"}
{"SMILES": "O=C(O)c1ccccc1-c1c2cc(Br)c(=O)cc-2oc2[c]([Hg+])c(O)c(Br)cc12", "target": "rep main protease", "test": "binding, SPR", "setting": "first site heterogeneous model", "endpoint": "Kd", "value": "1800 ± 10 nM"}
{"SMILES": "N#C[C@@]1(n2ccc(N)nc2=O)O[C@H](COP(=O)(O)OP(=O)(O)OP(=O)(O)O)[C@@H](O)[C@H]1O", "target": "Replicase polyprotein 1ab, nsp12 with nsp7/nsp8 (rep, Severe acute respiratory syndrome coronavirus 2, UniProt P0DTD1)", "test": "nucleotide binding, substrate", "setting": "templating base G", "endpoint": "Kd", "value": "4700 nM"}
{"SMILES": "O=C(Oc1cncc(Cl)c1)c1cc2cc(Cl)ccc2[nH]1", "target": "rep main protease", "test": "enzyme activity, inhibitor", "endpoint": "Ki", "value": "0.01 µM"}
{"SMILES": "COc1ccc(-c2csc3nc(-c4ccc(C)cc4)oc(=O)c23)cc1OC", "target": "rep nsp13 helicase", "test": "helicase ATPase activity, inhibitor, Kinase-Glo luminescence", "endpoint": "IC50", "value": "86 µM"}
{"SMILES": "Nc1nc(F)nc2c1ncn2[C@@H]1O[C@H](CO)[C@@H](O)[C@@H]1O", "target": "Replicase polyprotein 1ab, nsp12 RdRp (rep, Severe acute respiratory syndrome coronavirus 2, UniProt P0DTD1)", "test": "RdRp activity, inhibitor", "test system": "HEK293T", "setting": "24 h, added: nsp7 and nsp8", "endpoint": "EC50", "value": "1.06 µM"}
{"SMILES": "CC(C)(C)c1ccc(N(Cc2cc(Cl)cs2)C(=O)Cc2cncc3ccccc23)cc1", "target": "rep main protease", "test": "binding, MST", "endpoint": "Kd", "value": "1900 nM"}
{"SMILES": "O=C1CC(c2ccco2)CC(=O)C1=CNc1cc(Cl)ccc1O (centres unmarked)", "target": "rep nsp13 helicase", "test": "helicase ATPase activity, inhibitor, Kinase-Glo luminescence", "endpoint": "IC50", "value": "84 µM"}
{"SMILES": "CC(=O)Nc1ccc(-c2cnc(/N=C\\c3cc4ccccc4nc3Cl)s2)cc1", "target": "rep papain-like protease", "test": "papain-like protease activity, inhibitor", "test system": "SARS-CoV-2", "setting": "15 min, 37 °C, added: substrate 40 µM", "endpoint": "Ki", "value": "1.2 µM and < 2 µM"}
{"SMILES": "COc1ccc(N(Cc2cc(Cl)cs2)C(=O)Cc2cncc3ccccc23)cc1", "target": "rep main protease", "test": "enzyme activity, inhibitor", "endpoint": "Ki", "value": "3.7 µM"}
{"SMILES": "Nc1nc(F)nc2c1ncn2[C@@H]1O[C@H](COP(=O)(O)O)[C@@H](O)[C@@H]1O", "target": "rep nsp12 with nsp14/nsp10", "test": "RdRp activity, inhibitor, CoV-RdRp-Gluc reporter", "test system": "HEK293T, SARS-CoV-2", "setting": "with proofreading, added: nsp7, nsp8, nsp10 and nsp14", "endpoint": "EC50", "value": "6.69 µM"}
{"SMILES": "O=[N+]([O-])c1cc(Cc2ccccc2)cc(/C=N/c2ccc(N3CCOCC3)cc2)c1O", "target": "rep nsp13 helicase", "test": "helicase ATPase activity, inhibitor, Kinase-Glo luminescence", "setting": "60 min, added: 2.5 µM ATP", "endpoint": "IC50", "value": "3 µM"}
{"SMILES": "Nc1ncnc2c1c(I)cn2[C@@H]1O[C@H](CO)[C@@H](O)[C@H]1O", "target": "rep nsp12 with nsp14/nsp10", "test": "RdRp activity, inhibitor, CoV-RdRp-Gluc reporter", "test system": "HEK293T, SARS-CoV-2", "setting": "with proofreading, added: nsp7, nsp8, nsp10 and nsp14", "endpoint": "EC50", "value": "1.42 µM"}
{"SMILES": "Cc1ccc(-n2cccc2/C=C2\\C(=N)N3N=C(c4ccco4)SC3=NC2=O)cc1", "target": "rep nsp13 helicase", "test": "helicase ATPase activity, inhibitor, Kinase-Glo luminescence", "setting": "60 min, added: 2.5 µM ATP", "endpoint": "IC50", "value": "3 µM"}
{"SMILES": "CCC(C(=O)Nc1cc(NC2COC2)ccc1C)n1cc(F)cc2nc(SCc3ccc(F)cc3)nc1-2 (centres unmarked)", "target": "rep papain-like protease", "test": "binding", "endpoint": "Kd", "value": "496 ± 81 nM"}
{"note": "For quick reference, copied from above:"}
{"SMILES": "Nc1ncnc2c1c(I)cn2[C@@H]1O[C@H](CO)[C@@H](O)[C@H]1O", "target": "rep nsp12 with nsp14/nsp10", "test": "RdRp activity, inhibitor, CoV-RdRp-Gluc reporter", "test system": "HEK293T, SARS-CoV-2", "setting": "with proofreading, added: nsp7, nsp8, nsp10 and nsp14", "endpoint": "EC50", "value": "1.42 µM"}
{"SMILES": "Cc1ccc(-n2cccc2/C=C2\\C(=N)N3N=C(c4ccco4)SC3=NC2=O)cc1", "target": "rep nsp13 helicase", "test": "helicase ATPase activity, inhibitor, Kinase-Glo luminescence", "setting": "60 min, added: 2.5 µM ATP", "endpoint": "IC50", "value": "3 µM"}
